{"data": "Measurements pooled from the literature"}
{"Compound": "C#CCOCCOCCOCCOCCn1cc(C(ONC(=O)/C=C/C(C)=C/C2(C)Oc3cc(N(C)C)ccc3C2=O)(c2ccc(C)cc2)c2ccc(C)cc2)nn1 (stereo not drawn)", "test system": "buffer", "conditions": "pH at least 7", "quantity": "stability duration", "result": "> 3 days"}
{"Compound": "CC[C@H](C)[C@H](NC(=O)[C@H](N)Cc1ccc(O)cc1)C(=O)N[C@H]1CSSC[C@@H](C(=O)N(C)[C@H](C(N)=O)[C@@H](C)CC)NC(=O)[C@H](CCCNC(=N)N)NC(=O)[C@H](Cc2c[nH]cn2)NC(=O)[C@H](C)NC(=O)CN(C)C(=O)[C@H](Cc2c[nH]c3ccccc23)NC(=O)[C@H](CC(=O)O)NC(=O)[C@H](CCC(N)=O)NC(=O)[C@H](Cc2cn(C)c3ccccc23)NC(=O)[C@H](C(C)C)NC1=O", "test system": "human plasma, SPE extract", "conditions": "room temperature and 4 °C", "quantity": "stability time", "result": "≥ 48 h"}
{"Compound": "Oc1ccc2ccccc2c1/N=N/c1ccccc1", "test system": "rat whole blood extract", "conditions": "0.5 µg/L, 30 days, -20 °C, long-term storage", "quantity": "stability deviation", "result": "0.8%"}
{"Compound": "Cn1cc[n+](C)[c]1[Ir-3]123([c]4n(C)cc[n+]4C)[n]4c5ccc4C(c4c(F)c(F)c(F)c(F)c4F)=C4C=CC(=[N+]41)C(c1c(F)c(F)c(F)c(F)c1F)=c1ccc([n]12)=C(c1c(F)c(F)c(F)c(F)c1F)C1=[N+]3C(=C5c2c(F)c(F)c(F)c(F)c2F)C=C1.O=S(=O)([O-])C(F)(F)F", "test system": "CDCl3", "quantity": "stability time", "result": "72 h"}
{"Compound": "Oc1ccc2ccccc2c1/N=N/c1ccc(/N=N/c2ccccc2)cc1", "test system": "rat whole blood extract", "conditions": "0.5 µg/L, 30 days, -20 °C, long-term storage", "quantity": "stability deviation", "result": "2%"}
{"Compound": "CSCC[C@H](NC(C)=O)C(=O)[O-].CSCC[C@H](NC(C)=O)C(=O)[O-].[Ru+2].c1cc(Nc2nccc3ccccc23)nc(-c2cccc(Nc3nccc4ccccc34)n2)c1", "assay": "1H NMR", "test system": "DMSO-d6", "conditions": "dark", "quantity": "stability time", "result": "16 h"}
{"Compound": "CO[C@@H](C[C@H]1C(C)=CC[C@@H]2[C@]3(C)C[C@H](O[C@@H]4O[C@@H](C)[C@H](O)[C@@H](O)[C@H]4O)[C@@H](O)C(C)(C)[C@H]3CC[C@]21C)[C@H](N)C(=O)O", "test system": "simulated intestinal fluid with pancreatin", "conditions": "1 µM, pH 6.8, 37 °C", "quantity": "stability time", "result": "> 4 h"}
{"Compound": "COC(=O)/C=C/C(=O)c1ccc(OC)cc1", "test system": "rat plasma", "conditions": "15 d, -70 °C", "quantity": "stability", "result": "stable"}
{"Compound": "Cc1ccc(/N=N/c2c(O)ccc3ccccc23)c(C)c1", "test system": "rat whole blood", "conditions": "5.0 µg/L, 30 days, -20 °C, long-term storage", "quantity": "stability deviation", "result": "-0.3%"}
{"Compound": "CC/C=C\\C/C=C\\C/C=C\\C/C=C\\C/C=C\\C/C=C\\CCC(=O)Nc1ccn(C2OC(CO)C(O)C2(F)F)c(=O)n1 (stereo not drawn)", "test system": "isopropyl myristate", "quantity": "stability time", "result": "≥ 48 h"}
{"Compound": "Cc1ccccc1/N=N/c1ccc(/N=N/c2c(O)ccc3ccccc23)c(C)c1", "test system": "rat whole blood", "conditions": "16.0 µg/L, 30 days, -20 °C, long-term storage", "quantity": "stability deviation", "result": "1%"}
{"Compound": "C=C1C[C@@]23CC[C@H]4[C@@](C)(CCC[C@@]4(C)C(=O)O[C@@H]4O[C@H](CO)[C@@H](O)[C@H](O)[C@H]4O)[C@@H]2CC[C@]1(O[C@@H]1O[C@H](CO[C@H]2O[C@H](CO)[C@@H](O)[C@H](O)[C@H]2O)[C@@H](O)[C@H](O)[C@H]1O[C@@H]1O[C@H](CO)[C@@H](O)[C@H](O)[C@H]1O)C3", "test system": "Britton-Robinson buffer", "conditions": "0.05 w/v, pH 1.4", "how to read": "baseline: cpd over rebaudioside A", "quantity": "stability ratio", "result": "~2.5 fold"}
{"note": "For quick reference, copied from above:"}
{"Compound": "Cc1ccccc1/N=N/c1ccc(/N=N/c2c(O)ccc3ccccc23)c(C)c1", "test system": "rat whole blood", "conditions": "16.0 µg/L, 30 days, -20 °C, long-term storage", "quantity": "stability deviation", "result": "1%"}
